Experimental data pooled from the literature.
Compare with care: the assays were run in different laboratories. ± marks the error that the study gave.
Cell line: HepG2

| SMILES | assay | setting | how to read | quantity | value |
| --- | --- | --- | --- | --- | --- |
| C=C1C(=O)C23CCC4C(C)(C)CCCC4(C)C2C(O)CC1C3 (single isomer, unassigned) |  | concentration not given |  | GSH level | decreased |
| O=C(/C=C/c1ccccc1)OCCCC[P+](c1ccccc1)(c1ccccc1)c1ccccc1 | SRB | 24 h | reference: IC50 L02 over IC50 HepG2 | therapeutic index | 9.4 |
| NCCC(=O)N[C@@H](Cc1c[nH]cn1)C(=O)O | LDH | 10 µg/mL, 6 h, 1% FBS |  | viability | 73.2% |
| CCOC(=O)c1c(-c2ccc(C)cc2)oc2nc(N3CC[C@H](F)C3)ccc12 | cell growth or viability | 48 h |  | EC50 | > 50 µM |
| CCOc1cccc2c1[O][Pt-2]1([Cl])[N+](=C2)c2ccccc2[NH+]1c1ccccc1 (stereo not shown) | flow cytometry PI | concentration not given, 24 h |  | sub-G1 cells | 60 to 65% |
| COC(=O)C1C(C=NO)=Cc2cc3c(cc2C1c1cc(OC)c(OC)c(OC)c1)OCO3 (stereo not shown) |  |  | reference: CC50 HepG2 over amastigote EC50 | selectivity index | > 1.7 |
| CC(=O)O[C@H]1CC[C@]2(C)[C@H]3C(=O)C=C4[C@@H]5C[C@@](C)(C(=O)OCc6ccccc6)CC[C@]5(C)CC[C@@]4(C)[C@]3(C)CC[C@H]2C1(C)C | annexin V/7-AAD flow cytometry | 8 µM, 48 h |  | apoptotic cells | 45.8% |
| CSC(=NN=C(C)c1ccc(S(=O)(=O)N2CCC(C)CC2)cc1)N(C)C | annexin V/PI staining | IC50, 72 h |  | apoptotic cells early | 3.94% |
| O=C1/C(=C/c2ccc3c(c2)OCCO3)SC(=S)N1[C@@H]1O[C@H](CO)[C@@H](O)[C@H](O)[C@H]1O | flow cytometry | IC50, 48 h |  | G2/M phase cells | 34.5% |
| CCC12C=C(C(=O)OC)n3c(c(c4ccccc43)CCN(C=CC(=O)OC)CCC1)C2c1ccc(O)cc1 (stereo not shown) | cytotoxicity |  |  | EC50 | > 40 µM |
| CN(C(=NN=C(c1ccccc1)c1ccccn1)[S][Ga]([Cl])[Cl])C1CCCCC1 | western blot, refers to: ferritin | 5 µM, 24 h | reference: control | protein level | 0.61 fold |
| O=C1CCNC(=O)[C@@H]2CCCN2C(=O)CCNC(=O)[C@H](Cc2c[nH]cn2)NC(=O)[C@H](Cc2c[nH]cn2)N1 | LDH | 10 µg/mL, 6 h, 1% FBS |  | viability | 84.5% |
| COc1ccc(NC(C)(C)C(=O)Nc2ccc(F)c(Cl)c2)cc1S(=O)(=O)N1CCOCC1 | cell growth or viability |  |  | EC50 | > 25 µM |
| Cc1ccc2nc(-c3ccc(F)c(F)c3)c(CN3CCN(c4ccc(F)cc4)CC3)n2c1 | cell growth or viability | 48 h |  | EC50 | > 50 µM |
| CC(C)(C)c1cc2c(O)c(c1)Cc1cc(C(C)(C)C)cc(c1OCC(=O)NCc1cccnc1)Cc1cc(C(C)(C)C)cc(c1O)Cc1cc(C(C)(C)C)cc(c1OCC(=O)NCc1cccnc1)COC2 | cell growth or viability, MTT | 15 µM, 72 h |  | inhibition | 94% |
| Cc1ccc(NCC(=O)NC2CCC(F)(F)CC2)cc1S(=O)(=O)N1CCOCC1 | cell growth or viability |  |  | EC50 | > 25 µM |
| Cc1cc2nc(-c3cc4ccccc4nc3Cl)[nH]c2cc1C | flow cytometry | 10 µM, 48 h |  | cells in G2 phase | 53.3% |
| Cc1ccc2nc(-c3ccccc3)c(CN3CC[C@H](F)C3)n2c1 | cell growth or viability | 48 h |  | EC50 | > 50 µM |
| C=C1CC(OC(=O)C(C)(O)CCl)C2C(=C)C(=O)OC2C2C1CC(O)C2(O)CCl (stereo not shown) | PI flow cytometry | IC50, 48 h |  | cells in G1 phase | 60.1 ± 1.7% |
| Cc1c(C(=O)NNC(=S)Nc2ccc(Cl)cc2)nnn1Cc1nc2ccccc2[nH]1 | annexin V/PI | concentration not given, 24 h |  | necrotic cells | 7.12% |

| SMILES | assay | setting | how to read | quantity | value |
| --- | --- | --- | --- | --- | --- |
| O=C1CCNC(=O)[C@H](Cc2c[nH]cn2)NC(=O)[C@@H]2CCCN2C(=O)[C@H](Cc2c[nH]cn2)NC(=O)CCN1 | MTT | 10 µg/mL, 6 h |  | viability | 13.9% |
| CCC[C@H]1CC[C@H](c2ccc(NC(=S)NC[C@@H]3[C@@H](O)[C@@H](O)[C@H]4[C@H](O)CCCN43)cc2)CC1 | Transwell | concentration not given |  | cell invasion | decreased |
| Cc1ccc(NC(=O)c2cccc(C(F)(F)F)c2)cc1N1Cc2cnc(Nc3ccccc3)nc2N(C)C1=O | cell growth or viability, ATP luminescence | 72 h |  | GI50 | 1890 nM |
| Cc1ccc(NCC(=O)Nc2ccccc2)cc1S(=O)(=O)N1CCOCC1 | cell growth or viability |  |  | EC50 | > 25 µM |
| Cc1ccc(Nc2ncc3c(n2)N(C2CCCCC2)C(=O)N(c2cc(NC(=O)c4cccc(C(F)(F)F)c4)ccc2C)C3)cn1 | cell growth or viability, ATP luminescence | 72 h |  | GI50 | 1580 nM |
| Cc1ccc(NCC(=O)Nc2ccc(F)c(Cl)c2)cc1C(=O)N1CCOCC1 | cell growth or viability |  |  | EC50 | > 25 µM |
| Cc1ccc(-c2cn3cc(C)ccc3n2)cc1 | cell growth or viability | 48 h |  | EC50 | > 50 µM |
| C[C@H](CC(=O)C[C@@H](C)[C@H]1C[C@H](O)[C@@]2(C)C3=C(C(=O)C[C@]12C)[C@@]1(C)CCC(=O)C(C)(C)[C@@H]1C[C@@H]3O)C(=O)O | refers to: PPARA | concentration not given, added: high glucose |  | mRNA level | decreased |
| CC(=O)O[C@@H]1CC[C@@]2(C)C(CC[C@]3(C)C2C(=O)C=C2C4[C@@H](C)[C@H](C)CC[C@]4(C)CC[C@]23C)[C@@]1(C)C(=O)N/N=C1/C(=O)Nc2ccccc21 (stereo partly shown) | ELISA | 1 µM, added: APAP 10 mM | reference: APAP alone | IL-6 reduction | ~48% |
| Cc1ccc(NCC(=O)N2CCOCC2)cc1S(=O)(=O)N1CCOCC1 | cell growth or viability |  |  | EC50 | > 25 µM |
| CC(=O)O[C@@H]1CC[C@@]2(C)C(CC[C@]3(C)C2C(=O)C=C2C4[C@@H](C)[C@H](C)CC[C@]4(C)CC[C@]23C)[C@@]1(C)C(=O)OCC(=O)Oc1cc(C)ccc1C(C)C (stereo partly shown) | TNF-α production, ELISA, refers to: TNF-α | 1 µM, added: acetaminophen 10 mM | reference: acetaminophen-treated cells | inhibition | ~41% |
| Cc1ccc2nc(-c3ccc(F)c(F)c3)c(CN3CCN(c4cccc(C(F)(F)F)c4)CC3)n2c1 | cell growth or viability | 48 h |  | EC50 | > 50 µM |
| CC(=NN=c1sc(C(=O)c2ccccc2)nn1-c1ccccc1)c1ccc(S(=O)(=O)N2CCC(C)CC2)cc1 | annexin V/PI staining | IC50, 72 h |  | apoptotic cells total | 22.8% |
| CCN(CC)S(=O)(=O)c1cc(NCC(=O)Nc2ccc(F)c(Cl)c2)ccc1C | cell growth or viability |  |  | EC50 | > 25 µM |
| CCN1C(=O)N(c2cc(NC(=O)c3cccc(C(F)(F)F)c3)ccc2C)Cc2cnc(Nc3ccc(C)nc3)nc21 | cell growth or viability, ATP luminescence | 72 h |  | GI50 | 1310 nM |
| Cc1ccc2nc(-c3ccc(F)c(F)c3)c(CN3CCN(CCc4cccnc4)CC3)n2c1 | cell growth or viability | 48 h |  | EC50 | 40.6 µM |
| Cc1ccc(NCC(=O)Nc2ccc(F)cc2)cc1S(=O)(=O)N1CCOCC1 | cell growth or viability |  |  | EC50 | > 25 µM |
| COc1cc(/C=C/C(=O)OCCCC[P+](c2ccccc2)(c2ccccc2)c2ccccc2)ccc1O | SRB | 48 h | reference: IC50 L02 over IC50 HepG2 | therapeutic index | 7.82 |
| CSC(=S)N/N=C(\C)c1ccc(S(=O)(=O)N2CCC(C)CC2)cc1 | annexin V/PI staining | IC50, 72 h |  | apoptotic cells early | 3.59% |
| [NH2][Pt]1([NH2])([Cl])([O]C(=O)C(Cl)Cl)[O]C(=O)C2(CC(=O)C2)C(=O)[O]1 | mitochondrial membrane potential | 30 µM, 48 h |  | JC-1 red/green fluorescence ratio | 0.98 |

A few entries again:
| SMILES | assay | setting | how to read | quantity | value |
| --- | --- | --- | --- | --- | --- |
| Cc1c(C(=O)NNC(=S)Nc2ccc(Cl)cc2)nnn1Cc1nc2ccccc2[nH]1 | annexin V/PI | concentration not given, 24 h |  | necrotic cells | 7.12% |
| O=C1CCNC(=O)[C@H](Cc2c[nH]cn2)NC(=O)[C@@H]2CCCN2C(=O)[C@H](Cc2c[nH]cn2)NC(=O)CCN1 | MTT | 10 µg/mL, 6 h |  | viability | 13.9% |
| CCC[C@H]1CC[C@H](c2ccc(NC(=S)NC[C@@H]3[C@@H](O)[C@@H](O)[C@H]4[C@H](O)CCCN43)cc2)CC1 | Transwell | concentration not given |  | cell invasion | decreased |
| Cc1ccc(NC(=O)c2cccc(C(F)(F)F)c2)cc1N1Cc2cnc(Nc3ccccc3)nc2N(C)C1=O | cell growth or viability, ATP luminescence | 72 h |  | GI50 | 1890 nM |
